Results gathered from unrelated publications.
Numbered parts are unrelated; each lists some results of a single study.

Set 1
Target: Histone acetyltransferase KAT6A, winged helix 2, GST fusion (KAT6A, Homo sapiens, UniProt Q92794, residues 85-181)
Technique: protein binding microarray
Molecule type: double-stranded DNA, one strand shown
Medium: in vitro
Tested at: not given
Setting: 8-mer, flanks averaged, mean of 2 arrays, mostly near background
Relative to: not given
Direction: higher = stronger binding
Residues (chain): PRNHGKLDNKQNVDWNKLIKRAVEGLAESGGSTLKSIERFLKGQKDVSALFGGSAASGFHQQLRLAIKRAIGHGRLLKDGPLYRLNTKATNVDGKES
Sequence	E-score
AAGGAGCG	-0.0851
CTCCGTAC	-0.18
GCCCGGGA	0.265
GCAGGTAA	-0.094
AAATTGGC	-0.165
ATAGACTG	-0.113
ATCCCTAC	-0.0326

Set 2
Target: Centromere-binding protein 1, full length, N-terminal tag (CBF1, Saccharomyces cerevisiae, UniProt P17106, residues 1-351)
Chain of UniProt P17106 (whole entry, looked up): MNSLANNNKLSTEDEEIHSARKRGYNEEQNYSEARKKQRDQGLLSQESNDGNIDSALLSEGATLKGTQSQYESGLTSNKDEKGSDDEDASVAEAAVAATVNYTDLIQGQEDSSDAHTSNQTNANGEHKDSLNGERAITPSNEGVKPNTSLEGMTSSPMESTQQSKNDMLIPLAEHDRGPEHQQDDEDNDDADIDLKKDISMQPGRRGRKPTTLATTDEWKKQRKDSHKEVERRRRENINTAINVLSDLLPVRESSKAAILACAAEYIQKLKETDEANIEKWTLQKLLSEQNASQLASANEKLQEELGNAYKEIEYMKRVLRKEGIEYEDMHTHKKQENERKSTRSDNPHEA
Technique: protein-binding microarray
Molecule type: double-stranded DNA, one strand shown
Medium: in vitro
Tested at: 0.8 µM
Setting: whole 60-bp probe, no competitor
Direction: higher = stronger binding
Constant ends, left off below: … GTCTTGATTCGCTTGACGCTGCTG
Sequence	fluorescence intensity
GAAACTAGATTGCATCAGGTCCATAAAATGTTTTAG	524 a.u.
CTACCAATATTATCTTTCGTGGGTAGAGAAACATTC	552 a.u.
CCTAACTACTATACACATGACACATAGCTTCGTACA	1170 a.u.
CTACTACAGCTTCCATGTGAGCTTAAAACGATCTTC	666 a.u.
CTATTTTTACGAGGGCACGTTATAACGTTGGACTTC	689 a.u.
CCTAACTACTATATGCACATGTGATAGCTTCGTACA	2760 a.u.
CCTAACTACTATATGGTCAGGCAATAGCTTCGTACA	517 a.u.
GAAATCGTTAAACGTGATATTCCTACTATGTTATAG	977 a.u.

Set 3
Target: Hepatocyte nuclear factor 3-beta, forkhead domain (FOXA2, Homo sapiens, UniProt Q9Y261, residues 142-269)
Technique: protein-binding microarray
Molecule type: double-stranded DNA, one strand shown
Medium: in vitro
Tested at: not given
Setting: k-mer, scored over probes, only values ≥0.25
Direction: higher = stronger binding
Target sequence (chain): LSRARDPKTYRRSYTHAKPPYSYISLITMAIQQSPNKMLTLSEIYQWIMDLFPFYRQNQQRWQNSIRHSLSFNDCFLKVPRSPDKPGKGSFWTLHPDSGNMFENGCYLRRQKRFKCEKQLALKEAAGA
Sequence	E-score
ATGACCCA	0.256
ACCACAAC	0.251
CACAAATA	0.38
TACAACAA	0.309
AATGTGTG	0.344
GGAATATA	0.295

Mixed results
Molecule	target	test	test system	conditions	scale	endpoint	result
PhoQ, residues 284 288 289 292 302 303 TLSLKA	PhoP, residues 12 14 15 18 19 NHTVL (Escherichia coli, UniProt P23836)	Sort-seq, item: YFP reporter	E. coli	PhoQ-PhoP variant library, together with: 10 µM Mg2+	relative to: high Mg2+ state, higher = stronger signaling	fold induction	0.691

Repeated from above (set 2):
Sequence	fluorescence intensity
CTACTACAGCTTCCATGTGAGCTTAAAACGATCTTC	666 a.u.
GAAACTAGATTGCATCAGGTCCATAAAATGTTTTAG	524 a.u.
